Assay results from different studies.
Numbered parts are unrelated; each lists some results of a single study. Positions count from the first letter of the parent shown.

Study 1 — target: BATF2, bZIP domain (human); technique: DHFR protein complementation; sample: yeast; baseline: wild-type JUN-FOS pair; reading: higher = stronger binding; endpoint: binding fitness
Notes: single substitutions, most at no-binding floor
Starting sequence: JUN, bZIP domain (human); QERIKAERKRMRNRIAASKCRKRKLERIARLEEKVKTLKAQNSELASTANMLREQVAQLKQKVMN; partner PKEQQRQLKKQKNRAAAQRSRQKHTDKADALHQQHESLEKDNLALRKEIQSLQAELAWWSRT
Change = Q55K; value = -0.12 natural log
Change = R30L; value = -0.102 natural log
Change = T37R; value = -0.219 natural log
Change = I28P; value = -0.744 natural log
Change = E32M; value = -0.69 natural log
Change = Q55F; value = -1.05 natural log
Change = R30C; value = -0.316 natural log
Change = T48H; value = -0.292 natural log
Change = A46F; value = -0.631 natural log
Change = T48V; value = -0.306 natural log

Study 2 — technique: DHFR PCA, deep sequencing; sample: yeast; together with: (+)-ABA 0 µM; baseline: wild-type fitted maximum; reading: higher = stronger binding; endpoint: relative binding score
Target: ABI1, truncated, D143A, DHFR fusion (Arabidopsis thaliana)
Notes: methotrexate growth selection, single substitutions
Starting sequence: PYL1, truncated, DHFR fusion (Arabidopsis thaliana); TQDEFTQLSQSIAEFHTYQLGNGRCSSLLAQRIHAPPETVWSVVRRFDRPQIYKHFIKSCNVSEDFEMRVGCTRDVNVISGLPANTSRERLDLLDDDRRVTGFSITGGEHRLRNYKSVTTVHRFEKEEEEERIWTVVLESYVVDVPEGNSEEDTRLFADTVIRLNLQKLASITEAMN; partner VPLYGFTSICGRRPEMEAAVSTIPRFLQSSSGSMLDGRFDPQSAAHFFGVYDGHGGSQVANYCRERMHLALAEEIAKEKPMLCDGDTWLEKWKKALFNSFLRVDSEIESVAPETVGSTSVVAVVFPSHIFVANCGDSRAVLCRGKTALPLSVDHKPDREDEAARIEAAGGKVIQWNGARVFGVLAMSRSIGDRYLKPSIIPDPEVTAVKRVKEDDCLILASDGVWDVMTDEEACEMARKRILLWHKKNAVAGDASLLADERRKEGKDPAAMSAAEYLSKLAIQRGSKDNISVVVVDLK
Change = E151A; value = 51.5%
Change = S117N; value = -7.28%
Change = K58S; value = 8.4%
Change = F15G; value = 1.88%
Change = Q19E; value = 50.7%
Change = V44R; value = 2.53%
Change = T101K; value = 0.753%
Change = D3Q; value = 38.9%
Change = F66N; value = -0.552%
Change = I105V; value = 15.6%
Change = R163H; value = -2.21%
Change = F56L; value = 2.18%
Change = A13T; value = 12.4%
Change = M176F; value = -1.21%
Change = E139N; value = -7.51%
Change = D92I; value = 4.85%
Change = T1Q; value = 25.5%

Study 3 — technique: protein-binding microarray; form: double-stranded DNA, one strand shown; sample: in vitro; concentration: 2540 nM top; notes: 60-bp whole probe; together with: salmon DNA 0.4 mg/ml; baseline: random background probes; reading: higher = stronger binding; endpoint: fitted relative affinity; constant ends, left off below: GCCTAGCAC … GTCTTGATTCGCTTGACGCTGCTG
Target: Interferon regulatory factor 3, full length, phosphomimetic (IRF3, Homo sapiens, UniProt Q14653, residues 1-427, S386D/S396D/S398D/S402D/T404D/S405D)
Chain of UniProt Q14653 (whole entry, unmodified, looked up): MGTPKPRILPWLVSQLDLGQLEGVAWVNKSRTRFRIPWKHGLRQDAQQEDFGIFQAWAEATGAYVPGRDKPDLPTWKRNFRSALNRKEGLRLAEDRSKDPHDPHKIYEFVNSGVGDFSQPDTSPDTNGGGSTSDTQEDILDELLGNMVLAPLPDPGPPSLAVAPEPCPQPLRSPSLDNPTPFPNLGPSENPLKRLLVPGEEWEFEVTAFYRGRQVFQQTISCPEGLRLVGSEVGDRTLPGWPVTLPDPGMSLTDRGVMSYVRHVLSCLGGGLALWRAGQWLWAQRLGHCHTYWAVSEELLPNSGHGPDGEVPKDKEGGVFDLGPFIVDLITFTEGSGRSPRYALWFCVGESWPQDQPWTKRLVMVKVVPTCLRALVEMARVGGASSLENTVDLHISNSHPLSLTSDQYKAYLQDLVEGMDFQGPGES
Oligonucleotide = TCAAATCCCACATTTGATACTGTGCTA; value = 0.484 z-score
Oligonucleotide = TTGGGTATCGGTATCGGTTAGTGCTAG; value = 4.25 z-score
Oligonucleotide = TTAGGTTTCCTTCTCCTTTTGTGCTAG; value = 10.5 z-score
Oligonucleotide = TTAGATGTCGGGACTGGATTAGTGCTA; value = -0.233 z-score
Oligonucleotide = GACGGTATCTACACTGGGGACGTGCTA; value = 0.165 z-score
Oligonucleotide = GAAGGTTTCGACTATCGGGACGTGCTA; value = 2.33 z-score
Oligonucleotide = TCATCTCTGTCCCTGTTACTGTGCTAG; value = 0.839 z-score
Oligonucleotide = GAGGGACTGGGTCTCGGGACGTGCTAG; value = -1.28 z-score
Oligonucleotide = TCGCCTTTTTTGTTGTTTTTGTGCTAG; value = 2.31 z-score
Oligonucleotide = GACGGTCACGGTTTCGGGACGTGCTAG; value = 2.22 z-score
Oligonucleotide = GATGATCTCAGTATCGAGACGTGCTAG; value = 0.417 z-score
Oligonucleotide = TCAAATTTTTTTTCTAAACTGTGCTAG; value = 0.549 z-score
Oligonucleotide = GACGGTTTCGGGAGTGGGGACGTGCTA; value = 3.4 z-score
Oligonucleotide = CTAGGACTGGGTATCGGTTAGTGCTAG; value = 0.441 z-score
Oligonucleotide = TTTGGTATCGGTTTCGGTTAGTGCTAG; value = 8.55 z-score
Oligonucleotide = TTAGGACTGCTACTGCCTTAGTGCTAG; value = -0.738 z-score
Oligonucleotide = CACGGTTTCGGTCTCGGGACGTGCTAG; value = 7.75 z-score
Oligonucleotide = TCCTCTCTCTATTCAGAGGAGTGCTAG; value = 1.91 z-score
Oligonucleotide = GACGATTTCGGGTCTGGAGACGTGCTA; value = 2.44 z-score
Oligonucleotide = GACGGTCTCAGACTGGAGACGTGCTAG; value = 0.241 z-score
Oligonucleotide = TTAGGTTTCGACTATCGGTTAGTGCTA; value = 2.43 z-score
Oligonucleotide = GACGGTTTCGGTATCTGGACGTGCTAG; value = 7.65 z-score

Study 4 — technique: RNA Bind-n-Seq; form: RNA; sample: in vitro; concentration: 200 nM; notes: whole 134-nt RNA, ends assumed; together with: 150 mM LiCl; baseline: input library; reading: higher = stronger binding; endpoint: log2 enrichment; all molecules: 7-deaza-guanosine replaces G
Target: Fragile X messenger ribonucleoprotein 1, C-terminal low-complexity region (Fmr1, Mus musculus, UniProt P35922)
Constant ends, left off below: GGGAGUUCUACAGUCCGACGAUC … UGGAAUUCUCGGGUGUCAAGG
Oligonucleotide = UGGGAGGUGGAUUUUGUUUAUUUUUUUAGCUCAUUUCCAGGGGUGGGAAUUUUUUUUUAAUAUGUGUCAUGAAUAAAGUUGUUUUUGAAC; value = -0.438
Oligonucleotide = UCCUGUGCUACACAUCGUAUGUACCGAAUCAAACCCCCCCAAACCCCCAAAUUUUUAAAAAAGUAUUAUGUUACGCCGUUCGGAUCUGCA; value = 1.39
Oligonucleotide = CUCAAGUCCUGUGCUACACAUCGUAUGUACCGAAUCGGUUGGGGUUGGUUGGGAAAGUAUUAUGUUACGCCGUUCGGAUCUGCACUUCCA; value = 0.0532
Oligonucleotide = AGUCCUGUGCUACACAUCGUAUGUACCGAAUCAAACCCAAACCCCCCCAAAUUUAAAAAAGUAUUAUGUUACGCCGUUCGGAUCUGCACU; value = 1.17
Oligonucleotide = GUCCUGUGCUACACAUCGUAUGUACCGAAUCAAACCCAAACCCCCAAACCCCCCCAAAAAAGUAUUAUGUUACGCCGUUCGGAUCUGCAC; value = 0.536
Oligonucleotide = AGUCCUGUGCUACACAUCGUAUGUACCGAAUCGGGUUUUUUUGGGUUUGGGUUUGGGAAAGUAUUAUGUUACGCCGUUCGGAUCUGCACU; value = -1.69
Oligonucleotide = GCAGGAAGUAAAAACAAAUGGCAAUGCUUCGGAUAGUGGCAGGGGUGGGGGUUGCUAAGGAAAGGGUGGGAUGGGAGUGGGUAAAGAGUU; value = 1.79
Oligonucleotide = GUCCUGUGCUACACAUCGUAUGUACCGAAUCGGGAAAAAGGGAAAGGGAAAAAAAGGGAAAGUAUUAUGUUACGCCGUUCGGAUCUGCAC; value = 0.41
Oligonucleotide = CAAGUCCUGUGCUACACAUCGUAUGUACCGAAUCGGGGUUGGGGUUGGGGUUGGGAAAGUAUUAUGUUACGCCGUUCGGAUCUGCACUUC; value = -0.697
Oligonucleotide = CCUGUGCUACACAUCGUAUGUACCGAAUCGGGAAAAAGGGAAAAAAAGGGUUUUUUUGGGAAAGUAUUAUGUUACGCCGUUCGGAUCUGC; value = -1.75
Oligonucleotide = ACCAGGCAGGUGGGCAUCUUUGGGAAGUGGGGCAAGGGGGGGAUAGGGAGGGGGGUAACACUUUGGGAACAGGUGGUCCCAGGUCGUUUC; value = 1.54

Study 5 — technique: EMSA with sequencing; form: double-stranded DNA, one strand shown; sample: in vitro; concentration: 10 and 20 nM; baseline: negative control set to 0; reading: higher = stronger binding; endpoint: normalised bound fraction
Target: Hepatocyte nuclear factor 3-alpha (Foxa1, Mus musculus, UniProt P35582, residues 1-468, full length assumed)
Chain of UniProt P35582 (whole entry, looked up): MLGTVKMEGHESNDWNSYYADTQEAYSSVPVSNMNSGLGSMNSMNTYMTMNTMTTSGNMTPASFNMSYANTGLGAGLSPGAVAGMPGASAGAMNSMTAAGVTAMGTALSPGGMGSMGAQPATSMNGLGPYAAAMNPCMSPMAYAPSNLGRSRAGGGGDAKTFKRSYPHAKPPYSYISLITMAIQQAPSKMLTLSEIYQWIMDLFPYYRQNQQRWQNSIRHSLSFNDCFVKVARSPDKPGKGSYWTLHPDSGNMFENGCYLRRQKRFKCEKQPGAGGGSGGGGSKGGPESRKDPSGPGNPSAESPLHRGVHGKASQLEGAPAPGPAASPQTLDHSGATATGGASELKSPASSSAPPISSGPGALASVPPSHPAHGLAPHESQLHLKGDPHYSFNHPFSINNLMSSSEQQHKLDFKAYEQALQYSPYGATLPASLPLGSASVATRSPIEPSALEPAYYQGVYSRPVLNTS
Notes: whole designed probe, mean of two concentrations, ends assumed
Constant ends, left off below: GTGAGCGGTGCCCATTGATGGGGAAC … TTTCACTGGGATCGTGGGGAC
Oligonucleotide = AATAGAATAAAAAAAATAGATTACACCATTTTAACAAATAGAGTCTATCACATAGTGTGAATGTGTGCCTGAATGTATGCACTGAGTCATAATATAATCTTGCGTTTTCTGTGGGTTGTGGTCACTGCATGAAGGGAATTATCTGAGATCACTTGGCTATAGGGAAGTTAGACTTCATGGTTATTGTCTACTA; value = 0.0632 ratio
Oligonucleotide = CAAGTTTGTGGTCCAGGAGCAACAGGTTATGCCATACAGCCTAGGTGTGTAGTAGGCTACACACCGTCTATGTTTGTGTTGTACACTCTTTGTGCAAACATTGTCCATGACTCATTGATGAAATCTTCTCAGAACATACCCCTGTTGTTAAGCGATACATGACTGTACTTTTTTTAAAAAGTCCAAGGATATA; value = 0.43 ratio
Oligonucleotide = GAGGGGACGCCCTGGAGCTCAGGTGCTCAAGGGCGTGCGCGGGGCTCGGCCGCCGGTGTCCCTGGAGATGCTTCTCTGGTCTGGTGTGACACGAGAGTACACAGTCCCCGCCCTCTCGTGAGCGCCCGGGTGCGTGTGCTCCCTCCCGACCACCCTGAGGAGCGAGGGTGCTGGTCCCCGAGAGGGCGGCGAG; value = -0.0424 ratio
Oligonucleotide = TGCTTTGTTTTTGAGAGAAGGTTTCATCTGAAACAGAAACAGACACACATACCACGAGCCCGATTACTATAGAACCGAAGAGACCTTTCCAGCTGTTTACACTTCGGATGTAAAATGGCAATTTGACATAGACTAACAGTGTGATGTGAGCATCTGCGTAAAAAGGCGACATATGGAGCATGCCCAGTGTGGG; value = 0.163 ratio
Oligonucleotide = TGGCCTTCTGGCCCTATCTGCTCCGTGCCCAACCCAGCGCCCCGCACAGTCGGAGCTTTGTAATTTCGAGGTGACTGTCTGCCTACAAACTTTGTAATCTTCACTTGAAATGGCCGCAGGGTATTGTGACATGGCCATACCACTATTTGTTTGCTATTGAATTTGTACTTCCCTGCCTTACTTTTGCTATTGC; value = 0.24 ratio
Oligonucleotide = AGGCACAAGGTATGAATCACTAAGAATCTAGCAGCAGCTCTAGAAGCCTCCAAAGATAATTGGGGGGTGGAGTCACTTCCCCAACAGGGGGACGTAAATATGAAAGAACAGTGGATGGCCTAAATCAGTATGTGTCACTCTTTGTAAAGAGCCACAAGTGTTTGACTAGGGAAAAAGGAAAAGAGGCGAGAGT; value = 0.0865 ratio
Oligonucleotide = CTTGTTGTTCAACTTGGAGCAAATGCTCTGTTTATCATGTTGTCTTGAGAGGGGCCACAGCTAGGCATTCCAGCCCAGCAGTGTGGCCTTATGTAATCTTGGGTGGTTGAAAGTGATGGGATAAGGAAGCCAAAACTACCAACAGAGATGAGATTTTTCTGTATTTTATTCTTCCTGAGCAGCAGAGCCCGTG; value = -0.00518 ratio
Oligonucleotide = GATATTTCGCATGCGCAATTCACAATAAGGTTCATACTCCTATGAGAATCTAATGCTGCCTCTGATCTGACAGGAGGCAGCTCAGGCAGTAGTGTAATCTATGGGGAGTGGCTGTAAATACAGATGAAGCTTTGCTCTCTCACTGCCAACTCACCTTCTGGTGTGCAGCCTGGTTCCTAACAGGCCACAGACA; value = -0.0324 ratio

Single results of other studies
Molecule = GSPLAKAFTSTGL; target = human cyclin A2; assay = peptide binding, competitive growth sequencing; test system = peptide, Saccharomyces cerevisiae, cyclin A2-Cln2 fusion strain; conditions = concentration not given, mutational scanning library 1; how to read = baseline: unfused Cln2 strain, direction not given; endpoint = binding score; value = -0.358
